Experimental data gathered from unrelated publications.
Parts stem from different laboratories: compare values within a part only.

Block 1
Target: Histone acetyltransferase KAT6A, winged helix 2, GST fusion (KAT6A, Homo sapiens, UniProt Q92794, residues 85-181)
Technique: protein binding microarray
Form: double-stranded DNA, one strand shown
Sample: in vitro
Concentration: not given
Setting: 8-mer, flanks averaged, mean of 2 arrays, mostly near background
Relative to: not given
Reading: higher = stronger binding
Measurement: E-score
Target sequence (chain): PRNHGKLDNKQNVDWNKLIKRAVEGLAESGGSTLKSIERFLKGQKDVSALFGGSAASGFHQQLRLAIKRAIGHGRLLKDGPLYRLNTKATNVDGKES
Sequence = CATAAGAA; value = 0.111
Sequence = AGACCACG; value = -0.201
Sequence = CGAATCCG; value = 0.144
Sequence = ATCGGCCG; value = -0.00245
Sequence = CAAGTCGC; value = 0.0654
Sequence = AAACCATG; value = 0.0145
Sequence = CTGTACTC; value = -0.0694
Sequence = CTCGGCCC; value = 0.28
Sequence = AGGCCTGG; value = -0.094
Sequence = CCCGTAAG; value = -0.0963
Sequence = ACACTCAG; value = 0.2
Sequence = CGTAAATC; value = -0.00793
Sequence = ACGCTGTA; value = 0.0534
Sequence = CCGATCGA; value = 0.134
Sequence = CGAACGTA; value = -0.246
Sequence = CGAAGTTC; value = 0.078
Sequence = GTAGACCA; value = -0.143

Block 2
Target: Eukaryotic initiation factor 4A-I (EIF4A1, Homo sapiens, UniProt P60842, residues 1-406, full length assumed)
Sequence of UniProt P60842 (whole entry, looked up): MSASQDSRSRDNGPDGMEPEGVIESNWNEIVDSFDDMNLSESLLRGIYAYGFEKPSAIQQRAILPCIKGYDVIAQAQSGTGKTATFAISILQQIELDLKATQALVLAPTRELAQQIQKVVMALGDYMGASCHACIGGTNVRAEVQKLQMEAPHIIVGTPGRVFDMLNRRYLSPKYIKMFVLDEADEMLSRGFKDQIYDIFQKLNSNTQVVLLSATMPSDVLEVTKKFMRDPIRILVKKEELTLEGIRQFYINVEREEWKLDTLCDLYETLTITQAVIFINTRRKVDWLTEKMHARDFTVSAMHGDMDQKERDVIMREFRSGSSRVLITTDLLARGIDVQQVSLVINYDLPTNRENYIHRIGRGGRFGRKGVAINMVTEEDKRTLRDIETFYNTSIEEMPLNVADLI
Technique: RNA Bind-n-Seq
Form: RNA
Sample: in vitro
Concentration: 15 pmol
Setting: 4-mer, random 30-nt RNA, single round
With: DMSO vehicle, 2 mM AMP-PNP
Relative to: input library
Reading: higher = stronger binding
Measurement: 4-mer enrichment
Sequence = AGUA; value = 0.843 fold
Sequence = UCGG; value = 0.738 fold
Sequence = CCGU; value = 1.31 fold
Sequence = AACA; value = 1.52 fold
Sequence = GGGG; value = 1.04 fold
Sequence = AUUG; value = 0.793 fold
Sequence = CAGG; value = 1.5 fold
Sequence = CAGC; value = 1.61 fold
Sequence = UAAU; value = 0.829 fold
Sequence = UGAU; value = 0.902 fold
Sequence = UUGC; value = 0.939 fold
Sequence = UACU; value = 0.816 fold
Sequence = ACGC; value = 1.31 fold
Sequence = UUCC; value = 1.32 fold

Block 3
Target: Interferon regulatory factor 5, full length, phosphomimetic (IRF5, Homo sapiens, UniProt Q13568-2, residues 1-514, K96S/S451D/S453D/S456D/S462D)
Technique: protein-binding microarray
Form: double-stranded DNA, one strand shown
Sample: in vitro
Concentration: 250 nM
Setting: 60-bp whole probe
With: salmon DNA 0.4 mg/ml
Relative to: random background probes
Reading: higher = stronger binding
Measurement: log fluorescence
All sequences stand within: GCCTAGCAC … GTCTTGATTCGCTTGACGCTGCTG
Sequence = TACGGTCTCCTTCTCCTGACGTGCTAG; value = 0.0441 z-score
Sequence = GACGATCTCAGTTTCGAGAGGTGCTAG; value = 4.73 z-score
Sequence = TTAGTTTTCCTTCTCCTTTAGTGCTAG; value = 1.87 z-score
Sequence = AAGCTTCTTTTTTATTCTAAAGTGCTA; value = 1.17 z-score
Sequence = TTAGGTTGCGGGACTGGGTTAGTGCTA; value = -0.268 z-score
Sequence = GGCGGTTTCGGTCTCGGGACGTGCTAG; value = 9.16 z-score
Sequence = GACGATATCAGACTGGAGGCGTGCTAG; value = 0.422 z-score
Sequence = TCAGTTGTCCAGGCTGGTACTGTGCTA; value = -0.424 z-score
Sequence = TTAGGTATCGGTTTCGTTTAGTGCTAG; value = 9.7 z-score
Sequence = GACGTACTGCTTCTCCTGACGTGCTAG; value = -0.0914 z-score
Sequence = TCTTGTCTGGAGTCTCTGTTCGTGCTA; value = 0.12 z-score
Sequence = TTAGGTCTCCTTTTCCTTTAGTGCTAG; value = 0.249 z-score
Sequence = TCATGTCTGCCTTTCAAACTGTGCTAG; value = 0.0897 z-score

Block 4
Target: RNA binding protein fox-1 homolog 2, RRM domain, GST-SBP tag (RBFOX2, Homo sapiens, UniProt O43251-10, residues 100-194)
Technique: RNA Bind-n-Seq
Form: RNA
Sample: in vitro
Concentration: 365 nM
Setting: natural RNA segment, single round, ends assumed
Relative to: no-protein control
Reading: higher = stronger binding
Measurement: RBNS enrichment (R)
All sequences stand within: GGGAGUUCUACAGUCCGACGAUC … UGGAAUUCUCGGGUGCCAA
Construct (chain): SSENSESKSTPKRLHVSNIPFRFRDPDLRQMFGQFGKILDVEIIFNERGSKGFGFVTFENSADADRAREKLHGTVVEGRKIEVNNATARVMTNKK
Sequence = GAGACUGGCCCUGCCCUGCUUCUCAGUCUGUUCCACAUCCUAAGGUCACACCCUGUCAGGACUUCUUCGUACUCACCUGUCCCUUCCUGCAGCUUCCUUGACAGACAGGU; value = 0.401
Sequence = AAUAAACUCCAGAUCUGAAAUUCAGUAUUUUAGAAAAAUGCCAGCUCUUCUUACUGUAUUUAUUAAAACUUGUAAUAAUGUGAUUUUUUUCAAGGAUAUUAGUUCAAAUU; value = 0.948
Sequence = UAUUGAGAAAAGGUUGUAGGAAGCCUCACAAGAGACUUUUGACAAUUCUGAGGAACCUUGUGCCCAGUUGUUACAAAGUUUAAGCUUUGAACCUAACCUGCAUCCCAUUU; value = 1.12
Sequence = AGAGCUGUCUUGGCUAAUACUCUGCACCACAAUUGUGAUGUCCUAGUCCUACCACUAGAGGGCAUGGUACAGCCUGGCAAAAGUUAAAAGGGGUGUGGCAGCUCCCAUCA; value = 0.336
Sequence = CAACAAGUCAGUCGUCUCCAUUGAUAUUUGUACAAAAGGUAUACAUGGGGAACACGUGUUCAUUCAUUAAGUCCAUCUUGCGUGCAGCUAUAUCCCUGAUUGGUUAUUUU; value = 0.254
Sequence = UUUGACUCACUUCAGACCAUCUUCCACACACUAUGUCUGUGCUUGGAGAGGGGAGGUGGCUCUCCAGUGUAAAACUUGAGGCAUUCACUAGAGGUGAAAACUUGUCAGAA; value = 0.372
Sequence = UCAUUUGGAAUUUAAUGCUUGACUUCUUUGUUCAUUUUGGAUCUAAACUUCUCUUUUCUUCCUUCCCCAUUCACAUCUAUUAGAAGACUGCAUCACCAUUUCUUUGGCCC; value = 7.12
Sequence = CUGGGCAUCUUCUACUAAUGGCCUCGGCUUCCCUCUUUCCAUCCAGGAAUCAGUCCUGUAGCUUGGGUGCCUCCUUAUUUGUUAAUUAGUGGCUUUUCAUGUUCUCCUUU; value = 0.34

For quick reference, copied from above (block 2):
Sequence = AGUA; value = 0.843 fold
Sequence = UCGG; value = 0.738 fold
Sequence = CCGU; value = 1.31 fold
Sequence = AACA; value = 1.52 fold
Sequence = GGGG; value = 1.04 fold
